Measurements gathered from unrelated publications.
Each line is one published result; not all experiments were run side by side. Several values in a cell are separate wells, animals, samples, runs or records.
FGFR1: Fibroblast growth factor receptor 1 (FGFR1, Homo sapiens, UniProt P11362)
Chain of UniProt P11362 (whole entry, unmodified, looked up): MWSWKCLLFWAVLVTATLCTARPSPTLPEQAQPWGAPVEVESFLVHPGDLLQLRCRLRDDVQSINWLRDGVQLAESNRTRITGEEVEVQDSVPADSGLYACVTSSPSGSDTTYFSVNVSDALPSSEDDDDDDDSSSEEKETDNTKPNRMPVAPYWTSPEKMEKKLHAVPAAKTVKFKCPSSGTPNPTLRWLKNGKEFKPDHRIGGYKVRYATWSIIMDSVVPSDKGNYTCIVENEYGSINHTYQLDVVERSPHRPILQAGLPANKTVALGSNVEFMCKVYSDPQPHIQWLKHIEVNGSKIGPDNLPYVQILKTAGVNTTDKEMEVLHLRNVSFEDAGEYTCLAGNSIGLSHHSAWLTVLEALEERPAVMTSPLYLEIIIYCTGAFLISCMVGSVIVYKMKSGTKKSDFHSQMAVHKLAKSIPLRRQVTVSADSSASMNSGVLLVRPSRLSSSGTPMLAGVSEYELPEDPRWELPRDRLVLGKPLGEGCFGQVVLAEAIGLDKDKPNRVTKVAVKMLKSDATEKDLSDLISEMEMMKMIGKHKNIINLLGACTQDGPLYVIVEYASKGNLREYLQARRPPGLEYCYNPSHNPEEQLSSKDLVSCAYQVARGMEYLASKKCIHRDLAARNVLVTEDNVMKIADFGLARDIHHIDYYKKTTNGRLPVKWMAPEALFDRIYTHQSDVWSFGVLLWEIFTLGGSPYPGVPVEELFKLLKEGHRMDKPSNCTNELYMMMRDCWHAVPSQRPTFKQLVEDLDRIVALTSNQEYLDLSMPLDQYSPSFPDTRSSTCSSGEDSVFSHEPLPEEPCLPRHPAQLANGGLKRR
FGFR1 V561M: Fibroblast growth factor receptor 1 (FGFR1, Homo sapiens, UniProt P11362, V561M)

SMILES	target	assay	conditions	how to read	measurement	value
C=CC(=O)N1CCCC(n2c(=O)c3ncccc3n(Cc3ccc(Oc4ccccc4)cc3)c2=O)C1 (centres unmarked)	FGFR1	cell-free assay, competition with immobilised ligand	1 µM		remaining binding	88%
Cc1[nH]nc2c1N=C(c1ccccc1Cl)c1cnc(N3CCOCC3)cc1N2	FGFR1	enzyme activity, inhibitor	0.5 µM		inhibition	> 99%
C=CC(=O)Nc1cccc(-c2cnc3[nH]cc(C(=O)NC(C)(C)C)c3n2)c1	FGFR1	enzyme activity, inhibitor	0.1 µM		inhibition	23%
CNC(=O)C1CCN(c2cc(C)c(F)cc2NC(=O)c2ccc(-c3cc(O)ccc3C)c(C)c2)CC1	FGFR1	binding, competition with immobilised ligand	1 µM		remaining binding	94%
O=C=[N][Ru-4]123([n]4c5ccc(O)cc5c5c6c(c7cc(F)c[n+]1c7c54)C(=O)NC6=O)[S+]1CC[S+]2CC[S+]3CC1 (centres unmarked)	FGFR1 V561M	enzyme activity	100 nM, human enzyme, together with: 10 µM ATP	reference: untreated	remaining activity	83%
Nc1ncc2c(n1)-c1c([nH]c3ccc(C4=CCOCC4)cc13)CCC2	FGFR1	binding, competition with immobilised ligand	1 µM		remaining binding	95%
Nc1ncc(-c2cc(-c3cnn(CC(F)(F)F)c3)ncc2F)nc1C(=O)NC1CNCC(F)C1 (centres unmarked)	FGFR1	enzyme activity	1 µM	reference: DMSO control	remaining activity	91.1%
COCC12C(=O)NC3C4(C(OC)CC1O)C1CC5(O)C(OC)C(O)C(OC(C)=O)(C1C5OC(=O)c1ccccc1)C3(O)C(OC)C24 (centres unmarked)	FGFR1 V561M	kinase activity, inhibitor, ProQinase kinase profiling	25 µM	reference: control	remaining activity	102% and 94%
Cc1cccc(O[C@H]2CCC[C@@H](C(C)CNCc3ccncc3)C2)c1 (relative stereo)	FGFR1	cell-free assay	10 µM		inhibition	1%
COc1ccc(NC(=O)Nc2ccc3c(c2)C(=O)N(C(C)CO)CC(C)C(CN(C)Cc2ccc4c(c2)OCO4)O3)cc1 (centres unmarked)	FGFR1	kinase activity	0.03 µM	reference: control	remaining activity	111%
COc1cc(Nc2nc(C)cc(-c3cnn4nc(OC)ccc34)n2)cc(C(F)(F)F)c1	FGFR1	inhibitor	1 µM	reference: control	remaining activity	98%
Cc1ccc(C)c(-c2ccc3nc(NC(=O)C4CCCCC4)nn3c2)c1	FGFR1	enzyme activity, Dundee kinase panel	10 µM		remaining activity	96%
Cc1ccc(-c2c(/C=C(\C#N)C(=O)NC(C)C)n(CCCO)c3ncnc(N)c23)cc1	FGFR1	cell-free assay, competition with immobilised ligand	1 µM		remaining binding	97%
COc1ccc(O)cc1-c1c[nH]c2ncc(-c3cncc(C(=O)N(C)C)c3)cc12	FGFR1	binding, competition with immobilised ligand	0.2 µM		inhibition	10.3%
O=C(Nc1ccc(Oc2ncnc3[nH]cc(-c4ccccc4)c23)c(F)c1)c1c2n(n(-c3cc(F)ccc3F)c1=O)CCCC2	FGFR1	enzyme activity, inhibitor	0.5 µM		inhibition	-4%
CNC1C[S+]2CC[S+]3CC[S+](C1)[Ru-4]321([N]=C=S)[n]2c3ccc(OC)cc3c3c4c(c5cc(F)c[n+]1c5c32)C(=O)NC4=O (centres unmarked)	FGFR1	KinomeScan	0.1 µM	reference: untreated	remaining binding	71%
NC(=O)[C@@H](O)C[C@H]1CCc2sc3ncnc(O[C@H]4CC[C@H](N5CCOCC5)CC4)c3c21	FGFR1	enzyme activity, inhibitor	10 µM		inhibition	53%
CCN1CCN(Cc2ccc(C(=O)Nc3ccc(C)c(NCc4cnc5[nH]ccc5c4OC)c3)cc2C(F)(F)F)CC1	FGFR1	binding, competition with immobilised ligand	1 µM		remaining binding	0.95%
COc1c(OCCCN2CCOCC2)ccc2c1N=C(NC(=O)c1cnc(N)nc1)N1CCN=C21	FGFR1	kinase activity, inhibitor	1 µM	reference: untreated control	remaining activity	106%
Cc1cccc(-c2ccc3nc(NC(=O)C4CCCO4)nn3c2)c1 (centres unmarked)	FGFR1	enzyme activity, Dundee kinase panel	10 µM		remaining activity	124%
CN1CCN(Cc2ccc(-c3ccc(CO[C@H]4CCC[C@@H]4NC(=O)c4cc(-c5cnn(C)c5)cnc4N)cc3)cc2)CC1	FGFR1	enzyme activity, inhibitor	0.1 µM		inhibition	2%
COc1ccc(C(=O)/C=C/c2ccccc2-c2c[nH]c3ccc(C#N)cc23)c(O)c1	FGFR1	enzyme activity, inhibitor	20 µM		inhibition	34%
CNC(=O)C[C@H](Cc1ccc(C#N)cc1)NC(=O)c1cc(-c2ccc(CN[C@H](C)c3ccc(C)cc3)o2)ccc1Cl	FGFR1	enzyme activity, inhibitor	1 µM		activity vs control	81%
